# Earlier results, collected from citations in different studies.
# Lines come from different studies, so protocols differ. “And” joins repeats or separate records; there may be more than shown. ± marks the error that the study gave.
# UniProt P07333, sequence (whole entry, looked up): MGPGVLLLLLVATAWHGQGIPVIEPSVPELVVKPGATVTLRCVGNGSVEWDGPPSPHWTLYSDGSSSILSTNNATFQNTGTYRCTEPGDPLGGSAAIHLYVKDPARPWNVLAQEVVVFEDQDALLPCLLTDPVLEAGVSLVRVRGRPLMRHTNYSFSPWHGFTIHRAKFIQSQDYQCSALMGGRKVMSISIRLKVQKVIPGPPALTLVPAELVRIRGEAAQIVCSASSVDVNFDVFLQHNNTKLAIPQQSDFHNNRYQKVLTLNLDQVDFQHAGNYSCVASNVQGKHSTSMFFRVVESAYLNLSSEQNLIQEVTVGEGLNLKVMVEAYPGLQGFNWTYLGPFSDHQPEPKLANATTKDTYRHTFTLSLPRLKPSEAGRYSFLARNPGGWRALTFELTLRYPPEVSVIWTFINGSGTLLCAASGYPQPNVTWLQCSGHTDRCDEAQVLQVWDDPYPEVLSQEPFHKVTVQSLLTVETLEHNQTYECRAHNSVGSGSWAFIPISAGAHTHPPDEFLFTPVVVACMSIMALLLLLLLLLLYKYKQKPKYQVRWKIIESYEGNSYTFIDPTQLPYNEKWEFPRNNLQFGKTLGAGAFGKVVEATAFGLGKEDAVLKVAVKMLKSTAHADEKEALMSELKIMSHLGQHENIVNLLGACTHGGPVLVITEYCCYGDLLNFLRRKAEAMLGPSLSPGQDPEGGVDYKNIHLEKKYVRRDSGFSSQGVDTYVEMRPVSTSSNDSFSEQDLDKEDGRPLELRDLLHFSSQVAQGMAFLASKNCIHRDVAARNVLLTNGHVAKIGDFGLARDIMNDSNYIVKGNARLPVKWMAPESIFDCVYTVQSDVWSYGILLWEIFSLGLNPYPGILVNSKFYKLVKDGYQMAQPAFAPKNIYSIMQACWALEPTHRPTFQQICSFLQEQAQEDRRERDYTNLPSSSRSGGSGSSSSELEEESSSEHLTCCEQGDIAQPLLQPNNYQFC
# UniProt P23458, sequence (whole entry, looked up): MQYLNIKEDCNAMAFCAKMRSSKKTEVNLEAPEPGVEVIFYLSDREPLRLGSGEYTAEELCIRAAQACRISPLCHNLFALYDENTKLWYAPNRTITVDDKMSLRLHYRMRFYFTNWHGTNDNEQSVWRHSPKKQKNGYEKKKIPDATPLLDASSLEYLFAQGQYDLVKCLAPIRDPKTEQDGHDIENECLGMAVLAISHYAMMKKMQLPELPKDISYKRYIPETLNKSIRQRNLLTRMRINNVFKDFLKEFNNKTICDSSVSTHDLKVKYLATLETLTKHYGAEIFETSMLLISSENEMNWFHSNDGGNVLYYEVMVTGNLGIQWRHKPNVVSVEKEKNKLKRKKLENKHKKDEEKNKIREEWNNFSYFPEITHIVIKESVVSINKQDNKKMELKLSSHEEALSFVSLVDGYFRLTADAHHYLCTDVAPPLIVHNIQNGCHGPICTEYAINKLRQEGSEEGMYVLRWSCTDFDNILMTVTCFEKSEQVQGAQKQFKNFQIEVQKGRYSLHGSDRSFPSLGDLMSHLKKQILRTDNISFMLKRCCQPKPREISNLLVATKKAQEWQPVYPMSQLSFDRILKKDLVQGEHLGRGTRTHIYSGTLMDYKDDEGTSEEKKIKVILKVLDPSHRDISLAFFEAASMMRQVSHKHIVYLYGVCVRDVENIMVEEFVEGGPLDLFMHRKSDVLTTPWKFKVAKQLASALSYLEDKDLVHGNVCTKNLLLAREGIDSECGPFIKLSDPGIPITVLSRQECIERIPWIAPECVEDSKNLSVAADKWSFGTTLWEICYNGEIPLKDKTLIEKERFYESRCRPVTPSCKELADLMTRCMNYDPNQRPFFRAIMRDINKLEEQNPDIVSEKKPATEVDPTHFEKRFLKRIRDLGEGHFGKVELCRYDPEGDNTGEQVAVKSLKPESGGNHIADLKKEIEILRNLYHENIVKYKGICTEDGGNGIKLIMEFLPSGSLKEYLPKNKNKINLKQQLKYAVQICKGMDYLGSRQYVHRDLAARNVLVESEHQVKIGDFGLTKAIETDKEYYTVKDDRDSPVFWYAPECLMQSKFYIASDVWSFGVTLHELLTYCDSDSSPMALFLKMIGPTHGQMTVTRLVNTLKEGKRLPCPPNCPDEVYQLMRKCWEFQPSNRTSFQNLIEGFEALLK
# UniProt Q9UPZ9, sequence (whole entry, looked up): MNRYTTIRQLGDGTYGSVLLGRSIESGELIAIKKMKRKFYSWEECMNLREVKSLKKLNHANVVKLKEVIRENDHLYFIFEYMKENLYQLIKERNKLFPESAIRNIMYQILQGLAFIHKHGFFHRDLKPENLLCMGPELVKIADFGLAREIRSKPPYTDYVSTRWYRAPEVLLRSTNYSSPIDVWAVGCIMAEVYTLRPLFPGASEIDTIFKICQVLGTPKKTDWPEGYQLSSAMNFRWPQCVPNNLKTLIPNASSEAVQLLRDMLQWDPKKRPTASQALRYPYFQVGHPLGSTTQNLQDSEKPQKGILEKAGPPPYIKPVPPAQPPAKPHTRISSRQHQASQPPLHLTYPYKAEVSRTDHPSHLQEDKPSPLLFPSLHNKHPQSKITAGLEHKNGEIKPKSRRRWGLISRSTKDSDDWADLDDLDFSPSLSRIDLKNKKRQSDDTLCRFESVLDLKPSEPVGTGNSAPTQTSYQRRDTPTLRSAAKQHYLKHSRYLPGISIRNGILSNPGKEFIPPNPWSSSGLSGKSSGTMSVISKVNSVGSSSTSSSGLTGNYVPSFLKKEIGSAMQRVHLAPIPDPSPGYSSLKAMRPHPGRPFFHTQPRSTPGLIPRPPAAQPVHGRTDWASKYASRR
Structure (SMILES),tested on,assay,system,conditions,how to read,measurement,result
CN(C)c1cccc2c1C#Cc1cccc(N(C)C)c1C#C2,,"SPAAC cycloaddition, substrate, UV spectroscopy",methanol,"room temperature, mean of 2 runs, together with: benzyl azide 100 mM",,second-order rate constant,0.039 M⁻¹ s⁻¹ and 0.0387 M⁻¹ s⁻¹
COC[C@@H](c1ccc(C(F)(F)F)cc1)N1CCN(C2(C)CCN(C(=O)c3c(C)ncnc3C)CC2)C[C@@H]1C,,,"human, ART-naive HIV infected","dose not given, day 14, monotherapy",,HIV RNA decrease,≤ 1.6 log copies/mL
CCc1c2c(nc3ccc(OC(=O)N4CCC(N5CCCCC5)CC4)cc13)-c1cc3c(c(=O)n1C2)COC(=O)[C@]3(O)CC,,,human gastric or GEJ adenocarcinoma,"dose not given, trial",,overall survival,7.8 months
CC1(C)S[C@@H]2[C@H](NC(=O)[C@H](N)c3ccccc3)C(=O)N2[C@H]1C(=O)O,Pseudomonas aeruginosa,,clinical isolate RKI-No_402/14,,,MIC,> 16 µg/mL
C[C@H]1COCCN1c1nc(-c2cnc(N)cc2C(F)F)nc(N2CCOCC2)n1,SUP-T1,,,,,GI50,522 nM
COc1cc(NC(=O)CCN2CCC(OC(=O)Nc3ccccc3-c3ccccc3)CC2)c(Cl)cc1CNC[C@H](O)c1ccc(O)c2[nH]c(=O)ccc12,,,COPD patients,"inhaled, 200 µg twice daily, 12 h postdose, dosing day 1",reference: baseline,placebo-corrected trough FEV1 change,136 mL
CC/C(=C(\c1ccccc1)c1ccc(OCCN(C)C)cc1)c1ccccc1,,,high-risk women,"dose not given, prevention setting",,breast cancer risk reduction,43%
Cc1cc(NC(=O)c2cccc(NC(=O)/C=C/CN(C)C)c2)ccc1Nc1nccc(-c2cccnc2)n1,"Macrophage colony-stimulating factor 1 receptor (CSF1R, Homo sapiens, UniProt P07333)","enzyme activity, inhibitor",,1 µM,reference: vehicle,remaining activity,9%
CNC(C)C1CCC(N)C(OC2C(N)CC(N)C(OC3OCC(C)(O)C(NC)C3O)C2O)O1 (stereo not drawn),Pseudomonas aeruginosa,,clinical isolate RKI-No_402/14,,,MIC,8 µg/mL
CC(=O)Oc1ccc(C(c2ccc(OC(C)=O)cc2)c2ccccn2)cc1,,"antioxidant response element activation, Tox21 HTS",,,,AC50,48300 nM
Nc1cc(C(F)(F)F)c(-c2nc(N3CCOCC3)nc(N3CCOCC3)n2)cn1,"Serine/threonine-protein kinase ICK (CILK1, Homo sapiens, UniProt Q9UPZ9)",enzyme activity,,10 µM,reference: untreated,remaining activity,100%
C[N+]1(C)CCC(OC(=O)C(O)(c2ccccc2)C2CCCC2)C1 (stereo not drawn),,,COPD patients,"inhaled, 25 µg once daily, 24 h postdose, dosing day 1",reference: baseline,placebo-corrected trough FEV1 change,53 mL
Cc1cnc(C)cn1,,,"human, water",,,odour detection threshold,1700 µg/kg
CN[C@@H](C)C(=O)N[C@H]1CN(S(=O)(=O)c2cccc(S(=O)(=O)N3CC[C@H]4CC[C@@H](C(=O)NC(c5ccccc5)c5ccccc5)N4C(=O)[C@@H](NC(=O)[C@H](C)NC)C3)c2)CC[C@H]2CC[C@@H](C(=O)NC(c3ccccc3)c3ccccc3)N2C1=O,,,human,45 mg,,treatment cycles,> 13 cycles
Nc1ccn([C@@H]2CS[C@H](CO)O2)c(=O)n1,,,chronic hepatitis B patients,"dose not given, 6 months, together with: entecavir",reference: baseline,HBsAg reduction,0.06 log10 IU/mL
COc1nccnc1C(C)C,,,"human, water",,,odour detection threshold,0.004 µg/kg
CC1(C)CCC(CN2CCN(c3ccc(C(=O)NS(=O)(=O)c4ccc(NCC5CCOCC5)c([N+](=O)[O-])c4)c(Oc4cnc5[nH]ccc5c4)c3)CC2)=C(c2ccc(Cl)cc2)C1,,,"human, newly diagnosed AML","concentration not given, together with: decitabine",,CR with partial hematologic recovery rate,7.7%
Nc1cccc2c1C(=O)N(C1CCC(=O)NC1=O)C2=O (stereo not drawn),,,relapsed refractory multiple myeloma patients,"dose not given, independent adjudication",,partial response or better rate,9%
COC(=O)[C@H](Cc1ccccc1)NC(=O)[C@@H](N)CC(=O)O,,sensory evaluation,"human sensory panel, water",,reference: sucrose 5 % w/v,relative sweetness,2
CN/C(=N\C#N)NCCCc1c[nH]cn1,,"antinociception, hot plate test",rat,"intracerebroventricular, 5 min",,ED50,221 nmol
CNC[C@H](O)[C@@H](O)[C@H](O)[C@H](O)CO.O=C([O-])CN1CCN(CC(=O)[O-])CCN(CC(=O)O)CCN(CC(=O)[O-])CC1.[Gd+3],,,saline,"310 K, 0.47 T",,relaxivity r1,3.6 mM⁻¹ s⁻¹
C=CC(=O)N1CCC(C(=O)NCC(=O)N2CCN(c3nc(-c4cnc(N)nc4C(F)F)nc(N4CCOCC4)n3)CC2)CC1,"Tyrosine-protein kinase JAK1, JH2 pseudokinase domain (JAK1, Homo sapiens, UniProt P23458)",kinase activity,,1 µM,,remaining activity,32%
COc1cccc2c1C(=O)c1c(O)c3c(c(O)c1C2=O)C[C@@](O)(C(=O)CO)C[C@@H]3O[C@H]1C[C@H](N)[C@H](O)[C@H](C)O1,,,human epithelioid sarcoma patients,dose not given,,overall response rate,0 to 22%
CC(C)(CO)c1cc2cc(NC(=O)C3(c4ccc5c(c4)OC(F)(F)O5)CC3)c(F)cc2n1C[C@@H](O)CO,,sweat chloride reduction,human cystic fibrosis patients,clinical exposure-response,,EC50,0.5 µg/mL
C[C@]12CC[C@@H]3c4ccc(O)cc4C[C@@H](CCCCCCCCC[S+]([O-])CCCC(F)(F)C(F)(F)F)[C@H]3[C@@H]1CC[C@@H]2O (stereo partly drawn),,,"human, ER+ breast cancer","dose not given, after endocrine therapy progression",,median progression-free survival,3.8 months
Cc1c(C#N)cccc1[C@@H](C)Nc1nnc(C)c2cnc(N3CCOCC3)cc12,NCI-H1838,3D cell viability,,14 d,,IC50,50.1 ± 24.9 nM
Cc1ccc(C)c(OCCCC(C)(C)C(=O)O)c1,,,"HIV-negative hypertriglyceridemic individuals, plasma","600 mg once daily, 9 weeks, range over individuals",,triglyceride change,-34 to 14%

# Repeated from above:
Structure (SMILES),tested on,assay,system,conditions,how to read,measurement,result
Nc1cc(C(F)(F)F)c(-c2nc(N3CCOCC3)nc(N3CCOCC3)n2)cn1,"Serine/threonine-protein kinase ICK (CILK1, Homo sapiens, UniProt Q9UPZ9)",enzyme activity,,10 µM,reference: untreated,remaining activity,100%
C[N+]1(C)CCC(OC(=O)C(O)(c2ccccc2)C2CCCC2)C1 (stereo not drawn),,,COPD patients,"inhaled, 25 µg once daily, 24 h postdose, dosing day 1",reference: baseline,placebo-corrected trough FEV1 change,53 mL
Cc1cnc(C)cn1,,,"human, water",,,odour detection threshold,1700 µg/kg
CN[C@@H](C)C(=O)N[C@H]1CN(S(=O)(=O)c2cccc(S(=O)(=O)N3CC[C@H]4CC[C@@H](C(=O)NC(c5ccccc5)c5ccccc5)N4C(=O)[C@@H](NC(=O)[C@H](C)NC)C3)c2)CC[C@H]2CC[C@@H](C(=O)NC(c3ccccc3)c3ccccc3)N2C1=O,,,human,45 mg,,treatment cycles,> 13 cycles
